Assay results pooled from the literature.
Compare with care: the assays were run in different laboratories. Numbers after ± are the reported error.
GLP1R: Glucagon-like peptide 1 receptor (GLP1R, Homo sapiens, UniProt P43220)
Chain of UniProt P43220 (whole entry, looked up): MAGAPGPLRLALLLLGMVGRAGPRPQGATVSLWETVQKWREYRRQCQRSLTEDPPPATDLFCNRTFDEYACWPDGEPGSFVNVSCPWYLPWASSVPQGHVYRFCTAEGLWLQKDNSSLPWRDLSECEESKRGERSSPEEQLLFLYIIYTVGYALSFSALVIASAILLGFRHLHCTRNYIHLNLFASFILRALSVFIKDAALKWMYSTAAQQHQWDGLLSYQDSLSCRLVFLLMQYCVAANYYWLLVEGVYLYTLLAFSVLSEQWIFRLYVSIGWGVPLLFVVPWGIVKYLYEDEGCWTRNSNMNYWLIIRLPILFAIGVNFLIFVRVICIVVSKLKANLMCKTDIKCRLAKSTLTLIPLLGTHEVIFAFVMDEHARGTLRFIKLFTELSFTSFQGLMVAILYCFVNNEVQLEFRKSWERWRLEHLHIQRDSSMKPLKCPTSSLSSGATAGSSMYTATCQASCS
Chain of UniProt P05067 (whole entry, looked up): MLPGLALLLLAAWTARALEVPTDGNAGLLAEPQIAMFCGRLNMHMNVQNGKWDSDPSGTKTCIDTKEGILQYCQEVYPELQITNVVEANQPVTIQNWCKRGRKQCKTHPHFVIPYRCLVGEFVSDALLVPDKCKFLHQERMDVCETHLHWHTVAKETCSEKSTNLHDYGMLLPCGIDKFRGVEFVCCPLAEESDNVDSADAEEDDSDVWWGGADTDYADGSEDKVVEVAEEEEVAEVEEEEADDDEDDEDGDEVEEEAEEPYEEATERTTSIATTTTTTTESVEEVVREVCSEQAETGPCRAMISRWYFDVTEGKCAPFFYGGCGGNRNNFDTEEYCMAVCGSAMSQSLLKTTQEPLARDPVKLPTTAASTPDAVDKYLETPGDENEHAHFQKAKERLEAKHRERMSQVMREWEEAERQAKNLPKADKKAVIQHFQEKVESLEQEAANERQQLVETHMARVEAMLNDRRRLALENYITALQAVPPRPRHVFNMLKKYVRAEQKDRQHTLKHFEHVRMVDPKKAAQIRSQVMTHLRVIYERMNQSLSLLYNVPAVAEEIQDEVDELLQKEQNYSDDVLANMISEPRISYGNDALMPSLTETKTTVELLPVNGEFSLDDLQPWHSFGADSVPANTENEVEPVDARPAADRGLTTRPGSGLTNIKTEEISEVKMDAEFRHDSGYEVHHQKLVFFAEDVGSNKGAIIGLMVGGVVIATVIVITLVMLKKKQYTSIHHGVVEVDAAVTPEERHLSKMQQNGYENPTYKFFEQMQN
Chain of UniProt P25440 (whole entry, looked up): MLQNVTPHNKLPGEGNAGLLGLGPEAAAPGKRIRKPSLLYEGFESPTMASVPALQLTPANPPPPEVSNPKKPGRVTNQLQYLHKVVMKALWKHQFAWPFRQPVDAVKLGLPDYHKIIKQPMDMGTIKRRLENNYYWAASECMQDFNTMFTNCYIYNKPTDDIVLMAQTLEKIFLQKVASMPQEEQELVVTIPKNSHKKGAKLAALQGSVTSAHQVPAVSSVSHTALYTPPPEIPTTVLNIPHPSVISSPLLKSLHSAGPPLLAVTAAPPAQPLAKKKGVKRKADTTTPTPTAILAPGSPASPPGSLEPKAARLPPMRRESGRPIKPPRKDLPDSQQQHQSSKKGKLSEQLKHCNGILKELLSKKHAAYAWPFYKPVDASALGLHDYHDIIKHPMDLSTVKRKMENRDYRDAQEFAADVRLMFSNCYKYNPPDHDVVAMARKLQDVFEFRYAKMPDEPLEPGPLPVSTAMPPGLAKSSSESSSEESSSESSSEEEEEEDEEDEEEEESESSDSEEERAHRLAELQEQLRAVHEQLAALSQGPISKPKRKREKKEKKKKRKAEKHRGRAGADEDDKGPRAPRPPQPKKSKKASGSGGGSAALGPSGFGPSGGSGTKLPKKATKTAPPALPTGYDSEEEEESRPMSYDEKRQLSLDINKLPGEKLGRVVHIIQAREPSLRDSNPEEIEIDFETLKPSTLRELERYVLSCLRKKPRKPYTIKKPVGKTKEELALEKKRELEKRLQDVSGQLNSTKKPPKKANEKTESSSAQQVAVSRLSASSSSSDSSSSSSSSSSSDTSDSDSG
Chain of UniProt P56696 (whole entry, looked up): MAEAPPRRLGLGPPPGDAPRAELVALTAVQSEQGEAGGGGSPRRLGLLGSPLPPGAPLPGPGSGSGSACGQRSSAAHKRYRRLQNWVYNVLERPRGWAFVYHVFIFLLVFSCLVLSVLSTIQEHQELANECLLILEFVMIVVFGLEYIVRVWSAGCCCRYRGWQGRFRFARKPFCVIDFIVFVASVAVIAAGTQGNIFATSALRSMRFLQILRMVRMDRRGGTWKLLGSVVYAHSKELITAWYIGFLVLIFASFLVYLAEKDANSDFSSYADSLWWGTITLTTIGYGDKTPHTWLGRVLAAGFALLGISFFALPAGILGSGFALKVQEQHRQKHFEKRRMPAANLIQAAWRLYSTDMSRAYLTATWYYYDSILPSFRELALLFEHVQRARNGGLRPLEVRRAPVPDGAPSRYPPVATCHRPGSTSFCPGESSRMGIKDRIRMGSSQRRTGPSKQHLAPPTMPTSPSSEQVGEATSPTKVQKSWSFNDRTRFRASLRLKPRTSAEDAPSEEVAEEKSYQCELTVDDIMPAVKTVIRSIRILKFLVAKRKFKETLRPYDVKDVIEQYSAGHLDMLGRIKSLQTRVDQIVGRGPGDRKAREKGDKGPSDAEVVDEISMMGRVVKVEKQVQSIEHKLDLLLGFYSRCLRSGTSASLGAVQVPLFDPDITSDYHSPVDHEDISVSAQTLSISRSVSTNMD
Chain of UniProt Q15303 (whole entry, looked up): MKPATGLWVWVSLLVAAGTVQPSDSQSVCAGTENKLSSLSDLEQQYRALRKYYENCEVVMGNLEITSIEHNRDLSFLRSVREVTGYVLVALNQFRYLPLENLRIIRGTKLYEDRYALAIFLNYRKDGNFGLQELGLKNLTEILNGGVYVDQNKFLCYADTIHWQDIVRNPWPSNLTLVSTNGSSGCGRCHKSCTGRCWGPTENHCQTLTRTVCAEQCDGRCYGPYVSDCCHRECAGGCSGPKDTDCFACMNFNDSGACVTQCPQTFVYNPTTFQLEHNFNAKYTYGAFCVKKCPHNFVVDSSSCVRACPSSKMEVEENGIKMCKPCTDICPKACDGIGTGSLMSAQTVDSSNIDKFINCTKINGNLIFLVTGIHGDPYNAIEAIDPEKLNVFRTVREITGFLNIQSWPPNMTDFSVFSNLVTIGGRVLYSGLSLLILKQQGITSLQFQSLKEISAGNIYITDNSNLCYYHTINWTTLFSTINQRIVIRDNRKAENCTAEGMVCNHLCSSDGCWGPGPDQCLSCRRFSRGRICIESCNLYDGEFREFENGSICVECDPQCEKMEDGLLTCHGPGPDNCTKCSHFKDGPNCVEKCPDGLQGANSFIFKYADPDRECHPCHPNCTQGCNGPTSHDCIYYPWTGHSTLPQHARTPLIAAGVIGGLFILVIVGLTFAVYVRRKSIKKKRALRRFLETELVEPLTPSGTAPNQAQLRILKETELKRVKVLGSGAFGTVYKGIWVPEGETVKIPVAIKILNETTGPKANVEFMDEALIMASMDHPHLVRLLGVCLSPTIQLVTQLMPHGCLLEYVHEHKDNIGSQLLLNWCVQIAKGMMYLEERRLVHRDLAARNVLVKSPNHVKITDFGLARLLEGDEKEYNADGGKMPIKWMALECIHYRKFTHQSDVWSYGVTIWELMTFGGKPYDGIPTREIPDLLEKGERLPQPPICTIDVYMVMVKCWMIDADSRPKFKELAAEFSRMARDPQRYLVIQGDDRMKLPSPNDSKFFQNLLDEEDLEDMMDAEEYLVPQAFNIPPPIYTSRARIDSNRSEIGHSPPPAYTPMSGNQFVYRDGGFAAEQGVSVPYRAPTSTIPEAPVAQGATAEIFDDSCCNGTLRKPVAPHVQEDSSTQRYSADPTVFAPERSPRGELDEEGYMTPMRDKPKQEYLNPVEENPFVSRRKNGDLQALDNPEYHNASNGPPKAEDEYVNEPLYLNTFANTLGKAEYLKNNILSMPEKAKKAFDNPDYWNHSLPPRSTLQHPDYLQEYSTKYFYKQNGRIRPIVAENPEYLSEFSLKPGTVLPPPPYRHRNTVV
Chain of UniProt P98170 (whole entry, looked up): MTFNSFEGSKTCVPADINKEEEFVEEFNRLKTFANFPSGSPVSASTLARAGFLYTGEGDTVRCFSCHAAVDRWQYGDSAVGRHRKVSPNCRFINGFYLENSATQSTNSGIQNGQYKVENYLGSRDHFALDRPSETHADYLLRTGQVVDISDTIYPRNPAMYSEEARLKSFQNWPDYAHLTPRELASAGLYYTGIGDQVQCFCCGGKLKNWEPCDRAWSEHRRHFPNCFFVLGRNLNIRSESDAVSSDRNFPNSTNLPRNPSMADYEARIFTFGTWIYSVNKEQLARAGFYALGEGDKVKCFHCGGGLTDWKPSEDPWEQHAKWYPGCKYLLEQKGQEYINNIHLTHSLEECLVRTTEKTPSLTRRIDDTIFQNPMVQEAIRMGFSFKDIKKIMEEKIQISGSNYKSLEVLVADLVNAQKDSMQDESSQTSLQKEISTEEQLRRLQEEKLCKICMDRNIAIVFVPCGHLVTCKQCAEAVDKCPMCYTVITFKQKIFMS
Chain of UniProt P31153 (whole entry, looked up): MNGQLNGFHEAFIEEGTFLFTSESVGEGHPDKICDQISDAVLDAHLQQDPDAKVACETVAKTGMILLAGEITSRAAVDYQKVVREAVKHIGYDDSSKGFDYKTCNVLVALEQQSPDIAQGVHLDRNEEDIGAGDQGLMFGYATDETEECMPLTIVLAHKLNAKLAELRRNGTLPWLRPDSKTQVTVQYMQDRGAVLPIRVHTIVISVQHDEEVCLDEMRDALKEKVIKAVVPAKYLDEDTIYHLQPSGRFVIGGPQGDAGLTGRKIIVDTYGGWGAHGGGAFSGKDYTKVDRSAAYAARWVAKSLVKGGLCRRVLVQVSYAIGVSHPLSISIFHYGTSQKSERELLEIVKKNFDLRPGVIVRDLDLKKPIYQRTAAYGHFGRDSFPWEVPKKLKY

Structure (SMILES) | target | assay | system | setting | scale | endpoint | value
Nc1ncnc2c1ncn2[C@@H]1O[C@H](COP(=O)(O)OP(=O)(O)NP(=O)(O)O)[C@@H](O)[C@H]1O | S-adenosylmethionine synthase isoform type-2 (MAT2A, Homo sapiens, UniProt P31153) | substrate | – | enzyme 25 µM, added: methionine | – | AdoMet burst amplitude | 24 ± 3 µM
CC[C@H](C)[C@H](NC(=O)[C@@H]1CCCN1C(=O)[C@H](CCCCN)NC(=O)[C@H](CO)NC(=O)[C@H](CO)NC(=O)[C@H](Cc1ccc(O)cc1)NC(=O)[C@H](CO)NC(=O)[C@H](C)NC(=O)[C@H](CO)NC(=O)[C@@H](N)Cc1ccccc1)C(=O)N[C@@H](CCC(N)=O)C(=O)N[C@H](C(=O)N[C@@H](CCC(N)=O)C(=O)N[C@H](C(=O)N[C@@H](CO)C(=O)N[C@@H](CC(N)=O)C(=O)NCC(=O)N[C@@H](CCSC)C(=O)N[C@@H](CC(=O)O)C(=O)N[C@@H](CC(N)=O)C(=O)N[C@@H](C)C(=O)N[C@@H](CO)C(=O)N[C@@H](C)C(=O)N1CCC[C@H]1C(=O)N[C@H](C(=O)O)C(C)C)C(C)C)[C@@H](C)O | Peptide cyclase 1 (Gypsophila vaccaria, UniProt R4P353, S562A) | ITC | – | concentration not given, pH 8.0, 25 °C | – | binding stoichiometry | 1
O=C(Nc1cnc(Cl)nc1)c1ccc(F)c(F)c1 | Potassium voltage-gated channel subfamily KQT member 4 (KCNQ4, Homo sapiens, UniProt P56696) | two-electrode voltage clamp | – | 20 µM | – | maximal conductance increase | 175%
CN(Cc1cnc2ccccc2n1)C(=O)Nc1nc(-c2ccco2)n[nH]1 | Single-stranded DNA cytosine deaminase (AICDA, Homo sapiens, UniProt Q9GZX7) | deaminase activity, inhibitor, alkaline cleavage | purified GST-AID | 500 to 840 µM, pH 7.2, 37 °C, DMSO 100% | – | remaining activity | 8.3%
N#C/C(=C\c1ccc(O)c(O)c1)C(=O)c1ccc(O)c(O)c1 | ryanodine receptor 2 (Sus scrofa, UniProt A0A5G2R1W3) | inhibitor | cardiac SR vesicles | concentration not given, added: Ca2+ 30 µM | – | [3H]ryanodine binding | inhibited
CC(C)CCSc1nc2c([nH]1)c(=S)n(C)c(=O)n2C | Androgen receptor (AR, Homo sapiens, UniProt P10275) | reporter gene, antagonist, PSA-luciferase | HeLa-A6 | 10 µM, 24 h, added: 5 nM dihydrotestosterone | relative to: maximal activity | remaining activity | 74%
COc1cccc(C(=O)N[C@H]2[C@@H](O)[C@@H](CO)O[C@@H](S[C@@H]3O[C@H](CO)[C@H](O)[C@H](NC(=O)c4cccc(OC)c4)[C@H]3OS(=O)(=O)O)[C@@H]2O)c1 | Galectin-3 (LGALS3, Homo sapiens, UniProt P17931) | ITC | – | concentration not given, all parameters fitted | – | binding stoichiometry | 1.01
O=Cc1c(O)c(C=O)c(O)c(C=O)c1O | CD209 antigen (CD209, Homo sapiens, UniProt Q9NNX6) | activator, plate-based HRP | – | 500 µM, overnight, 4 °C or RT | relative to: DMSO control | HRP binding | ≥ 50%
COc1ccc(CCC(=O)Nc2nc3ccc(Cl)cc3s2)cc1OC | Squalene synthase (Homo sapiens, UniProt P37268) | degrader, Western blot, measured: protein level | HeLa | 18 h | – | Dmax | 68%
COC(=O)CC1N=C(c2ccc(Cl)cc2)c2c(sc(C(=O)NCCCCCNc3cccc4c3C(=O)N(C3CCC(=O)NC3=O)C4=O)c2C)-n2c(C)nnc21 (stereo not shown) | Bromodomain-containing protein 2 (BRD2, Homo sapiens, UniProt P25440) | degrader, western blot | HEK-293T | 5 h | – | degradation | inactive
CN[C@@H](C)C(=O)N[C@H]1CCCCNC(=O)[C@H](Cc2ccccc2)NC(=O)[C@@H]2CCCN2C(=O)[C@@H](NC(=O)[C@H](C)NC)CCCCNC(=O)[C@H](Cc2ccccc2)NC(=O)[C@@H]2CCCN2C1=O | E3 ubiquitin-protein ligase XIAP, BIR3 domain (XIAP, Homo sapiens, UniProt P98170) | caspase-3/7 activity, antagonist | MDA-MB-231 cell lysate | added: 500 nM XIAP BIR3 protein | – | concentration for full caspase restoration | 500 nM
NC(=O)C1CCNC(=O)C(CCCNC(=O)c2cnccn2)NC(=O)C(CC2CCCCC2)NC(=O)C(CC=Cc2ccccc2)NC(=O)C=CC(=O)N1 (stereo not shown) | Receptor tyrosine-protein kinase erbB-4 (ERBB4, Homo sapiens, UniProt Q15303) | DNA-templated library selection | – | one selection round | – | enrichment factor | 1.3
Cc1ncsc1-c1ccc([C@H](C)NC(=O)[C@@H]2C[C@@H](O)CN2C(=O)[C@@H](NC(=O)CN2CCN(CC3CCN(CC(=O)N4CCN(c5ncc(-c6cc(NC(=O)c7ccc(F)cc7C(F)(F)F)c(N7C[C@@H](C)N(C)[C@@H](C)C7)cc6F)cn5)CC4)CC3)CC2)C(C)(C)C)cc1 | WD repeat protein WDS (Spodoptera frugiperda, UniProt A0A2H1VC02) | degrader, targeted MS | Spodoptera frugiperda L5 larvae | injection, 0.1 nmol/mg | – | degradation | 35%
CCOCCNC(=O)N1CCC[C@H](c2n[nH]c(-c3ccccc3)n2)C1 | Aromatase (CYP19A1, Homo sapiens, UniProt P11511) | enzyme activity, inhibitor, MFC to HFC conversion | – | 40 µM, added: MFC substrate | – | apparent Vmax | 0.45 pmol HFC/min/pmol P450
COc1ccc(F)cc1CC1(NC(=O)c2cc(N3C[C@@H](C)O[C@H](C)C3)ccn2)CC1 | Sodium- and chloride-dependent creatine transporter 1 (SLC6A8, Homo sapiens, UniProt P48029, P544L) | PathHunter trafficking | U-2 OS expressing SLC6A8 | 24 h | relative to: DMSO | maximal surface localization | 3.5 fold
CC[C@H](C)[C@H](NC(=O)[C@H](CC(N)=O)NC(=O)[C@H](CC(N)=O)NC(=O)[C@H](CCCNC(=N)N)NC(=O)[C@H](CC(N)=O)NC(=O)[C@H](CCCNC(=N)N)NC(=O)[C@H](CCCCN)NC(=O)[C@@H](NC(=O)[C@H](CC(N)=O)NC(=O)[C@H](CCSC)NC(=O)[C@H](CC(C)C)NC(=O)[C@H](Cc1c[nH]c2ccccc12)NC(=O)[C@@H]1CSCc2ccc(cc2)-c2ccc(cc2)CSC[C@@H](NC(=O)[C@H](CO)NC(=O)[C@H](CC(=O)O)NC(=O)[C@H](CC(C)C)NC(=O)[C@H](Cc2ccc(O)cc2)NC(=O)[C@H](CCCCN)NC(=O)[C@H](CO)NC(=O)[C@H](Cc2ccc(O)cc2)NC(=O)[C@H](CC(=O)O)NC(=O)[C@H](CO)NC(=O)[C@@H](NC(=O)[C@H](Cc2ccccc2)NC(=O)[C@@H](NC(=O)CNC(=O)[C@H](CCC(N)=O)NC(=O)[C@@H](CO)NC(=O)[C@@H](N)Cc2c[nH]cn2)[C@@H](C)O)[C@@H](C)O)C(=O)N[C@@H](CCCNC(=N)N)C(=O)N[C@@H](C)C(=O)N[C@@H](CCC(N)=O)C(=O)N[C@@H](CC(=O)O)C(=O)N[C@@H](Cc2ccccc2)C(=O)N[C@@H](C(C)C)C(=O)N1)[C@@H](C)O)C(=O)N[C@@H](C)C(N)=O | GLP1R | CRE luciferase reporter, agonist | – | concentration not given | relative to: linear counterpart | activity increase | 2 fold
[3H]C([3H])([3H])Nc1ccc(-c2nc3ccc(O)cc3o2)cn1 | Amyloid-beta precursor protein, Aβ40 fibrils (APP, Homo sapiens, UniProt P05067) | – | Aβ(1-40) fibrils | – | – | dissociation half-life first phase | 12 ± 2.4 s
COc1ccc(-c2cc(C(F)(F)F)nc(SCC(=O)N(C)c3ccccc3)n2)cc1 | GLP1R | efficacy cooperativity, allosteric modulator | HEK-293T overexpressing GLP1R | added: GLP-1(9-36) | – | cooperativity factor beta | 1
COc1cc(C2C(NC(=O)c3ccc(NC(=O)OC(C)(C)C)cc3)(C(=O)O)C(c3ccc(OC(=O)c4cccs4)c(OC)c3)C2(NC(=O)c2ccc(NC(=O)OC(C)(C)C)cc2)C(=O)O)ccc1OC(=O)c1cccs1 (stereo not shown) | GLP-1 receptor, N-terminal helix or ECD truncated, human | agonist | cell-based | concentration not given | – | cAMP production | inhibited
COc1cc(OC)cc(-c2nc(Nc3nc4ccccc4o3)ncc2C#N)c1 | Metabotropic glutamate receptor 5 (Grm5, Rattus norvegicus, UniProt P31424) | calcium mobilization, negative allosteric modulator | – | added: glutamate EC80 | relative to: maximal glutamate response | maximal response | 24 ± 10%
O=C(O)CCC(=O)C(=O)O | racE (Bacillus subtilis, UniProt P94556) | enzyme activity, inhibitor | – | – | – | binding free energy | -4.64 kcal/mol
Cc1cc(CC(=O)N2C[C@H](O)C[C@H]2C(=O)NCc2ccccc2)on1 | von Hippel-Lindau disease tumor suppressor, with Elongin B/C (VHL, Homo sapiens, UniProt P40337) | isothermal titration calorimetry | – | 25 °C | – | entropic term (−TΔS) | 7.8 ± 0.2 kcal/mol
COc1cccc(OC)c1OCCCn1cc(CCCNc2nc3c(c(=O)[nH]2)[n+](C)cn3C2OC(COP(=O)(O)OP(=O)([O-])OP(=O)(O)OCC3OC(n4cnc5c(=O)[nH]c(N)nc54)C(O)C3O)C(O)C2O)nn1 (stereo not shown) | DNA-directed RNA polymerase (Enterobacteria phage SP6, UniProt P06221) | in vitro transcription, densitometry | short RNA | – | – | capping efficiency | 67.5 ± 0.7%
[3H]C([3H])([3H])c1cnccc1CN1C[C@@H](c2cc(F)c(F)c(F)c2)CC1=O | Synaptic vesicle glycoprotein 2A (SV2A, Homo sapiens, UniProt Q7L0J3) | radioligand binding, saturation binding | human control, pooled frontal cortex P1 fraction | – | – | Bmax | 16.9 pmol/mg
CCCN(CC(=O)N(CCC)CC(=O)N(CCC)CC(=O)N(CCC)CC(=O)N(CC(=O)N(CCC)CC(=O)N(CCC)CC(=O)N(CCC)CC(=O)N(CCC)CC(=O)N(CC(=O)N(CCC)CC(=O)N(CCC)CC(=O)N(CCC)CC(=O)N(CCC)CC(=O)N(CC(N)=O)Cc1cn(CCCNC(=O)CCCOc2cccc(-c3nc4ccc(-c5nc6ccc(N7CCN(C)CC7)cc6[nH]5)cc4[nH]3)c2)nn1)Cc1cn(CCCNC(=O)CCCOc2cccc(-c3nc4ccc(-c5nc6ccc(N7CCN(C)CC7)cc6[nH]5)cc4[nH]3)c2)nn1)Cc1cn(CCCNC(=O)CCCOc2cccc(-c3nc4ccc(-c5nc6ccc(N7CCN(C)CC7)cc6[nH]5)cc4[nH]3)c2)nn1)C(=O)CNCc1cn(CCCNC(=O)CCCOc2cccc(-c3nc4ccc(-c5nc6ccc(N7CCN(C)CC7)cc6[nH]5)cc4[nH]3)c2)nn1 | MBNL1–r(CUG)109 complex | MBNL1 displacement | 0.65 pmol r(CUG)109 | unit not given, added: yeast tRNA 3.7 µM | relative to: monomer 2 IC50 per module | multivalent effect | 71

Repeated from above:
Structure (SMILES) | target | assay | system | setting | scale | endpoint | value
CC[C@H](C)[C@H](NC(=O)[C@@H]1CCCN1C(=O)[C@H](CCCCN)NC(=O)[C@H](CO)NC(=O)[C@H](CO)NC(=O)[C@H](Cc1ccc(O)cc1)NC(=O)[C@H](CO)NC(=O)[C@H](C)NC(=O)[C@H](CO)NC(=O)[C@@H](N)Cc1ccccc1)C(=O)N[C@@H](CCC(N)=O)C(=O)N[C@H](C(=O)N[C@@H](CCC(N)=O)C(=O)N[C@H](C(=O)N[C@@H](CO)C(=O)N[C@@H](CC(N)=O)C(=O)NCC(=O)N[C@@H](CCSC)C(=O)N[C@@H](CC(=O)O)C(=O)N[C@@H](CC(N)=O)C(=O)N[C@@H](C)C(=O)N[C@@H](CO)C(=O)N[C@@H](C)C(=O)N1CCC[C@H]1C(=O)N[C@H](C(=O)O)C(C)C)C(C)C)[C@@H](C)O | Peptide cyclase 1 (Gypsophila vaccaria, UniProt R4P353, S562A) | ITC | – | concentration not given, pH 8.0, 25 °C | – | binding stoichiometry | 1
O=C(Nc1cnc(Cl)nc1)c1ccc(F)c(F)c1 | Potassium voltage-gated channel subfamily KQT member 4 (KCNQ4, Homo sapiens, UniProt P56696) | two-electrode voltage clamp | – | 20 µM | – | maximal conductance increase | 175%
CN(Cc1cnc2ccccc2n1)C(=O)Nc1nc(-c2ccco2)n[nH]1 | Single-stranded DNA cytosine deaminase (AICDA, Homo sapiens, UniProt Q9GZX7) | deaminase activity, inhibitor, alkaline cleavage | purified GST-AID | 500 to 840 µM, pH 7.2, 37 °C, DMSO 100% | – | remaining activity | 8.3%
N#C/C(=C\c1ccc(O)c(O)c1)C(=O)c1ccc(O)c(O)c1 | ryanodine receptor 2 (Sus scrofa, UniProt A0A5G2R1W3) | inhibitor | cardiac SR vesicles | concentration not given, added: Ca2+ 30 µM | – | [3H]ryanodine binding | inhibited
